Measured values from different studies.
Parts stem from different laboratories: compare values within a part only. Changes are numbered by the printed parent chain.

Study 1
Target: Interferon regulatory factor 3, full length, phosphomimetic (IRF3, Homo sapiens, UniProt Q14653, residues 1-427, S386D/S396D/S398D/S402D/T404D/S405D)
Chain of UniProt Q14653 (whole entry, unmodified, looked up): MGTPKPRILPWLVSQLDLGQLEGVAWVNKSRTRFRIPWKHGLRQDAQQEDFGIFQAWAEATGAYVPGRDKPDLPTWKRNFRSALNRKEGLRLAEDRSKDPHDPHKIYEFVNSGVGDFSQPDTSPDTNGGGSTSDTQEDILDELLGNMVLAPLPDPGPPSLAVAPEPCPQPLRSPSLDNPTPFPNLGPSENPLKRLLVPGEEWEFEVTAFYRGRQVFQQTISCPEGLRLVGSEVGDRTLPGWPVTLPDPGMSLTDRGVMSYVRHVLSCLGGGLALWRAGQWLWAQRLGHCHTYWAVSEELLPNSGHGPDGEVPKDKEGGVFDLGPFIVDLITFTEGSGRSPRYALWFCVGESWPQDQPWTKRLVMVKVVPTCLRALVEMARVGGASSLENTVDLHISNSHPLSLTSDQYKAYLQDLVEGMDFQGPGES
Method: protein-binding microarray
Form: double-stranded DNA, one strand shown
Sample: in vitro
Tested at: 2540 nM top
Notes: 60-bp whole probe
Together with: salmon DNA 0.4 mg/ml
Baseline: random background probes
Reading: higher = stronger binding
Constant ends, left off below: GCCTAGCAC … GTCTTGATTCGCTTGACGCTGCTG
For `TTCGATTTCAGTCTCGATTAGTGCTAG`, “fitted relative affinity” read 2.76 z-score.
Under “fitted relative affinity”, `ACAAGTTTCTCCTTTGTAAAGTGCTAG` is recorded as 1.94 z-score.
`CCCCCTTTTATATTGTAAGCGTGCTAG`: “fitted relative affinity” 2.06 z-score.
`TTAGAGCTCAGTCTCGATTAGTGCTAG` — result for “fitted relative affinity”: 0.289 z-score.
`GACGGTCTCGGACTGGGGGCGTGCTAG` — result for “fitted relative affinity”: 0.299 z-score.
For `GACGGTATAGACTATCGGGACGTGCTA`, “fitted relative affinity” read -0.248 z-score.
`CTCCCTTTCTCTCTGTGACAGTGCTAG`: “fitted relative affinity” 3.37 z-score.
`CTCCTTTTAATTTTTAACGAGTGCTAG` — result for “fitted relative affinity”: 2.47 z-score.

Study 2
Target: TAR DNA-binding protein 43, full length, His tag (TARDBP, Homo sapiens, UniProt Q13148, residues 1-414)
Method: RNA Bind-n-Seq
Form: RNA
Sample: in vitro
Tested at: 20 nM
Notes: 6-mer, flanks averaged, single round
Together with: 150 mM LiCl
Baseline: input library
Reading: higher = stronger binding
For `UUUCAA`, “6-mer enrichment (R)” read 0.932.
`UGGGGA`: “6-mer enrichment (R)” 1.27.
`GAGGCG`: “6-mer enrichment (R)” 1.14.
`GGAACC` — result for “6-mer enrichment (R)”: 0.92.
For `CUUUGU`, “6-mer enrichment (R)” read 1.12.
Under “6-mer enrichment (R)”, `CCUUAU` is recorded as 1.03.
`UGAGCU`: “6-mer enrichment (R)” 0.936.
Under “6-mer enrichment (R)”, `AUUAUG` is recorded as 1.03.

Further values, each from its own experiment
P1: PafA, mature enzyme, eGFP fusion (Elizabethkingia meningoseptica, UniProt Q9KJX5); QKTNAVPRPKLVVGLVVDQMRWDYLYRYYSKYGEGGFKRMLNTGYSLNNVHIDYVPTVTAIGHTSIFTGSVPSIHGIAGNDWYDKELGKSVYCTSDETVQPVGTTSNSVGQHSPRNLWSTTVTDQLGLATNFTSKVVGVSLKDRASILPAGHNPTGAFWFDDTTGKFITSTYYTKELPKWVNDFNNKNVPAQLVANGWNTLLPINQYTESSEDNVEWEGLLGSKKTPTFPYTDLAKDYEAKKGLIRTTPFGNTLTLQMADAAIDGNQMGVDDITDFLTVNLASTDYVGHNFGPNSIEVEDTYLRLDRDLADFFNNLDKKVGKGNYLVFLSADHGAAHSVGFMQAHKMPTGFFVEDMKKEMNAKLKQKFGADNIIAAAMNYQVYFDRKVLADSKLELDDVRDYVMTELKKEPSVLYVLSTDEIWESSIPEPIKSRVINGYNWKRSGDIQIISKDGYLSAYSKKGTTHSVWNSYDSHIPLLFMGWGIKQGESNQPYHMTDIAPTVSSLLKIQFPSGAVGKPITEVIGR
`CYC1 (Homo sapiens, UniProt P08574)` — result for cross-linked residues: “K325 to S205” (UQCRC1 (Homo sapiens, UniProt P31930); cross-linking MS; cell fractions; together with: DSSO).
`P1 E395V`: “phosphate dissociation constant” 624 µM (inorganic phosphate, free oxyanion; microfluidic competitive inhibition; in vitro, cell-free expressed; not given, derived from inhibition constants, unchanged parent 615000 nM; lower = stronger binding).
`SAP18 (Homo sapiens, UniProt O00422)`: cross-linked residues “K74 to K109” (PNN (Homo sapiens, UniProt Q9H307); cross-linking MS; cell fractions; together with: DSSO).
`GTF2H1 (Homo sapiens, UniProt P32780)` — result for cross-linked residues: “K102 to E149” (XPC (Homo sapiens, UniProt Q01831); cross-linking MS; cell fractions; together with: DMTMM).
`DNMT1 (Homo sapiens, UniProt P26358)`: cross-linked residues “K347 to E893” (EMC1 (Homo sapiens, UniProt Q8N766); cross-linking MS; cell fractions; together with: DMTMM).

A few entries again (further values, each from its own experiment):
`SAP18 (Homo sapiens, UniProt O00422)`: cross-linked residues “K74 to K109” (PNN (Homo sapiens, UniProt Q9H307); cross-linking MS; cell fractions; together with: DSSO).
